Assay results from different studies.
Compare with care: the assays were run in different laboratories. ± marks the error that the study gave. Values after ≈ are worked out from the molar mass of the structure shown.

Compound = Cc1ccc(C(C)C)cc1.[Cl][Ru+].[O-]c1ccccc1C=NCCNc1ccnc2cc(Cl)ccc12; assay = shake-flask method; test system = water/n-octanol; conditions = pH 4.9; quantity = distribution coefficient D; value = 0.4 ± 0.02
Compound = O=C(O)CCC(NP(=O)(O)OCCC[C@@H](NC(=O)CCC(NC(=O)c1ccc([18F])cc1)C(=O)O)C(=O)O)C(=O)O (stereo partly shown); assay = radioactivity; test system = mouse, CWR22Rv1 xenograft, tumour; conditions = 1 h; quantity = tumour uptake; value = 1.54%
Compound = CCCCCc1cc(O)c2c(c1)OC(C)(C)C1CCC(C(=O)OC3OC(C(=O)O)C(O)C(O)C3O)=CC21 (stereo not shown); assay = tube adsorption method; test system = human liver microsome incubation; conditions = 50 µM, 30 min; quantity = unbound fraction; value = 0.43 ± 0.071
Compound = CC(C)(CCCC/C=C/CCCCCC(C)(C)C(=O)O)C(=O)O; test system = rhesus monkeys, spontaneous hyperlipidemia; conditions = 20 mg/kg, 2 weeks; quantity = body weight; value = no effect
Compound = [11CH3]Sc1ccc(C(=O)C2CCN(C3Cc4ccccc4CC3O)CC2)cc1 (single isomer, unassigned; (-)); assay = PET imaging; test system = cynomolgus monkey, striatum; quantity = maximum uptake; value = 5160 nCi/cc
Compound = CN[C@](C)(C[18F])C(=O)O; test system = mouse, muscle; conditions = 1 h, tumour-bearing; quantity = tracer uptake; value = 1.1 %ID/g
Compound = COc1ccc(NC(=O)Cn2c(=O)c3ccccc3n(CC(=O)Nc3cc([125I])c(OC)cc3OC)c2=O)cc1; test system = rat, spleen; conditions = intravenous, 5 min; quantity = tracer uptake; value = 0.29 %ID/g
Compound = Cc1ccccc1CN1CCC(O)(c2ccc(Cl)c(C(F)(F)F)c2)CC1; test system = female BALB/c mouse, serum; conditions = intraperitoneal, 50 mg/kg; quantity = peripheral volume of distribution; value = 2 L
Compound = CC(C)C[C@H](NC(=O)[C@H](CCCCN)NC(=O)[C@H](CCC(=O)O)NC(=O)[C@H](C)NC(=O)[C@@H](NC(=O)[C@H](CCCCN)NC(=O)[C@H](CC(=O)O)NC(=O)[C@H](Cc1ccc(O)cc1)NC(=O)[C@H](Cc1ccccc1)NC(=O)[C@H](C)NC(=O)[C@H](CCCCN)NC(=O)[C@H](CC(C)C)NC(=O)[C@H](Cc1c[nH]c2ccccc12)NC(=O)[C@@H](N)CC(=O)O)C(C)C)C(=O)N[C@@H](CCCCN)C(=O)N[C@@H](CCC(=O)O)C(=O)N[C@@H](C)C(=O)N[C@@H](Cc1ccccc1)C(=O)N1CCC[C@H]1C(=O)N[C@@H](CC(=O)O)C(=O)N[C@@H](Cc1c[nH]c2ccccc12)C(=O)N[C@@H](C)C(=O)N[C@@H](CCCCN)C(=O)N[C@@H](C)C(=O)N[C@@H](C)C(=O)N[C@@H](Cc1ccc(O)cc1)C(=O)N[C@@H](CC(=O)O)C(=O)N[C@@H](CCCCN)C(=O)N[C@@H](C)C(=O)N[C@@H](C)C(=O)N[C@@H](CCC(=O)O)C(=O)N[C@@H](CCCCN)C(=O)N[C@@H](C)C(=O)N[C@@H](CCCCN)C(=O)N[C@@H](CCC(=O)O)C(=O)N[C@@H](C)C(=O)N[C@@H](C)C(=O)O; test system = cynomolgus monkey female, plasma; conditions = intravenous infusion, 8 mg/kg, day 1, 30 min infusion; quantity = AUC(0-last); value = 430 µg·h/mL
Compound = CC[C@H](C)[C@H](NC(=O)[C@H](CCC(=O)O)NC(=O)[C@H](CCC(=O)O)NC(=O)[C@H](Cc1ccccc1)NC(=O)[C@H](CC(=O)O)NC(=O)CNC(=O)[C@H](CC(N)=O)NC(=O)CNC(=O)CNC(=O)CNC(=O)CNC(=O)[C@@H]1CCCN1C(=O)[C@H](CCCNC(=N)N)NC(=O)[C@@H]1CCCN1C(=O)[C@H](N)Cc1ccccc1)C(=O)N1CCC[C@H]1C(=O)N[C@@H](CCC(=O)O)C(=O)N[C@@H](CCC(=O)O)C(=O)N[C@@H](Cc1ccc(O)cc1)C(=O)N[C@@H](CC(C)C)C(=O)O; assay = LC-MS/MS; test system = processed plasma samples; conditions = 7 h, autosampler stability, nominal 240.0 ng/mL; quantity = concentration; value = 241 ± 11.7 ng/mL
Compound = CC[C@H](C)C(=O)N1CCC(NC(=O)Nc2ccc(OC(F)(F)F)c(F)c2)CC1; test system = human, plasma; conditions = oral, 8 mg, single dose, fasted, healthy volunteers, tablet; quantity = half-life; value = 66.9 h
Compound = CC(C)C[C@@H](NC(=O)[C@@H](CCCCN)NC(=O)CNC(=O)CNC(=O)[C@@H]1CSSC[C@H](N)C(=O)NCC(=O)N[C@@H](CCCNC(=N)N)C(=O)N[C@@H](CCCNC(=N)N)C(=O)N[C@@H](C)C(=O)NCC(=O)NCC(=O)N[C@@H](CO)C(=O)N1)C(=O)N[C@H](C)C(=O)N[C@H](CCCCN)C(=O)N[C@H](CC(C)C)C(=O)N[C@H](C)C(=O)N[C@H](CCCCN)C(=O)N[C@H](CCCCN)C(=O)N[C@H](CC(C)C)C(=O)N[C@H](C)C(=O)N[C@H](CCCCN)C(=O)N[C@H](CC(C)C)C(=O)N[C@H](C)C(=O)N[C@H](CCCCN)C(=O)O; test system = cynomolgus monkey, plasma; conditions = intravenous, 3 mg/kg, infusion; quantity = MRT; value = 1.28 h
Compound = C/C=C/C=C/C/C=C/CCCCCCCc1cccc(O)c1O; test system = female Kunming mice tumour-bearing, lungs; conditions = intravenous, 10 mg/kg, 2 h; quantity = tissue concentration; value = 10900 ± 1340 ng/g
Compound = CSCC[C@@H]1NC(=O)[C@@H]2CSSC[C@H](NC(=O)[C@H](CO)NC(=O)[C@H](C)N)C(=O)N[C@@H](CCCNC(=N)N)C(=O)N[C@@H]([C@@H](C)O)C(=O)N3CCC[C@H]3C(=O)N[C@@H](CCCCN)C(=O)N[C@@H](CC(=O)O)C(=O)N[C@H]3CSSC[C@H](NC(=O)[C@H](CCCCN)NC(=O)[C@H](CCCNC(=N)N)NC(=O)[C@H](CC(N)=O)NC1=O)C(=O)N[C@@H](CCCCN)C(=O)N[C@H]1CSSC[C@H](NC(=O)[C@@H]4CCCN4C(=O)[C@H](CC(=O)O)NC(=O)[C@H](C)NC3=O)C(=O)N[C@@H](C)C(=O)N[C@@H](CCCCN)C(=O)N[C@@H](CCC(=O)O)C(=O)N[C@@H]([C@@H](C)O)C(=O)NCC(=O)N[C@@H](CSSC[C@@H](C(N)=O)NC(=O)[C@H](CCCNC(=N)N)NC(=O)[C@H](CC(N)=O)NC1=O)C(=O)N1CCC[C@H]1C(=O)N[C@@H](Cc1ccc(O)cc1)C(=O)NCC(=O)N[C@@H](CCCCN)C(=O)N2; test system = DA rat pristane-induced arthritis, serum; conditions = subcutaneous, 0.1 mg/kg every other day, 21 days; quantity = Glucose; value = 105 mg/dL
Compound = CC(C)[C@H](NC(=O)CNC(=O)[C@H](CCC(N)=O)NC(=O)[C@H](C)N)C(=O)O; test system = human; conditions = 10 mg/kg, 3 days, thrice daily dosing; quantity = subjects given concomitant medication; value = 0%
Compound = COc1cc2ccnc(Cc3ccc(O[11CH3])c(OC)c3)c2cc1OC; test system = Sprague-Dawley rat, cerebellum; conditions = i.v., 5 min; quantity = brain uptake; value = 0.161 %ID/g
Compound = O=C([O-])C[N+]12CC(=O)[O][Re-2]1[O]P(=O)([O-])C2.[C-]#[O+].[C-]#[O+].[C-]#[O+] (stereo not shown); assay = HPLC; test system = aqueous solution; conditions = 1 d, pH 2, room temperature; quantity = isomer fraction at equilibrium; value = 19%
Compound = COc1ccc(F)cc1S(=O)(=O)Nc1cnc2c(c1)C(=O)NCCO2; assay = ultracentrifugation; test system = mouse plasma; quantity = unbound fraction; value = 0.27 to 0.283
Compound = CSCC[C@H](NC(=O)CNC(=O)[C@H](CC(=O)O)NC(=O)[C@@H](NC(=O)[C@@H](NC(=O)[C@@H](NC(=O)CNC(=O)[C@H](CCC(N)=O)NC(=O)[C@H](CCSC)NC(=O)[C@H](CC(=O)O)NC(=O)[C@H](C)NC(=O)[C@H](C)NC(=O)[C@@H](NC(=O)[C@H](CO)NC(=O)[C@@H](N)CC(C)C)[C@@H](C)O)C(C)C)C(C)C)[C@@H](C)O)C(=O)N[C@@H](C)C(=O)N[C@@H](CO)C(=O)NCC(=O)N[C@@H](CC(C)C)C(=O)N[C@@H](CC(=O)O)C(=O)N[C@@H](CCCCN)C(=O)N[C@@H](CC(=O)O)C(=O)N[C@@H](Cc1ccc(O)cc1)C(=O)N[C@@H](CC(C)C)C(=O)N[C@@H](CCCCN)C(=O)N1CCC[C@H]1C(=O)N[C@@H](CC(=O)O)C(=O)N[C@@H](CC(=O)O)C(=O)O; test system = human patients, serum; conditions = intravenous infusion, 1 mg/kg; quantity = distribution half-life; value = 8.64 min
Compound = N=C(N)NCCC[C@@H]1NC(=O)[C@H](Cc2c[nH]c3ccccc23)NC(=O)[C@@H](CC2CCCCC2)NC(=O)[C@@H]2CCCN2C(=O)[C@@H](NC(=O)CCc2ccccc2)CCCNC1=O; test system = C57BL/6J mice; conditions = subcutaneous, 1 mg/kg daily, up to 5 days; quantity = toxicity; value = not toxic
Compound = COC(=O)C[C@](O)(CCCC(C)(C)OC(C)=O)C(=O)O[C@@H]1C(OC)=C[C@]23CCCN2CCc2cc4c(cc2[C@H]13)OCO4; test system = CD1 mouse, stomach; conditions = oral, 1 mg/kg, 24 h, below quantification limit 1.00 ng/mL; quantity = tissue concentration; value = not detected
Compound = CN(C)C(CNC(=O)Nc1cc(C(F)(F)F)ccc1N1CCOCC1)c1ccncc1 (stereo not shown); test system = mouse, serum; conditions = intraperitoneal, 120 mg/kg single dose; quantity = serum ALT; value = 106 U/L
Compound = C[C@H](CCC(=O)N[C@@H](CCCCNC(=O)C(F)(F)F)C(=O)O)[C@H]1CC[C@H]2[C@@H]3[C@H](O)C[C@@H]4C[C@H](O)CC[C@]4(C)[C@H]3C[C@H](O)[C@]12C; test system = C57BL/6J mice, liver; conditions = oral, 50 mg/kg, 5 h; quantity = concentration; value = 12.7 µM
Compound = N=C(N)NCc1ccc(C(=O)NCCCC[C@H](NC(=O)N[C@@H](CCC(=O)O)C(=O)O)C(=O)O)cc1[211At]; test system = SCID mouse, PC-3 xenografts, muscle; conditions = 21 h; quantity = tissue uptake; value = 0.09 ± 0.01 %ID/g
Compound = O=NN(O)NCCS(=O)(=O)O; test system = phosphate-buffered saline; conditions = pH 7.4, 37 °C; quantity = HNO release half-life; value = 3.52 h
Compound = CC[C@H](C)CCCCC(=O)N[C@@H](CCN)C(=O)N[C@H](C(=O)N[C@@H](CCN)C(=O)N[C@H]1CCNC(=O)[C@H]([C@@H](C)O)NC(=O)[C@H](CCN)NC(=O)[C@H](CCN)NC(=O)[C@H](CC(C)C)NC(=O)[C@@H](Cc2ccccc2)NC(=O)[C@H](CCN)NC1=O)[C@@H](C)O; assay = ELISA; test system = male CD-1 mouse, urine; conditions = subcutaneous, 25 mg/kg, 4 doses every 8 h, 24 h urine collection, nephrotoxicity; quantity = urinary albumin excretion; value = 1150 µg/24 h
Compound = O=c1c2ccccc2[se]n1CCCn1[se]c2ccccc2c1=O; test system = 1% Soluplus in water; conditions = 24 h, 25 °C, 10 mg/mL; quantity = solubility; value = 115 ± 7 µg/mL (≈ 264 µM)
Compound = [2H]C([2H])([2H])C([2H])([2H])C([2H])([2H])OC(C(=O)OC1CCNCC1)(c1ccccc1)c1ccccc1; test system = healthy Japanese male, plasma; conditions = oral, dose not given, 16 days; scale = baseline: single dose; quantity = accumulation ratio; value = 5
